Experimental data from different studies.
A part holds a random share of what one study measured.

Study 1 — technique: protein binding microarray; molecule type: double-stranded DNA, one strand shown; matrix: in vitro; concentration: not given; reference: not given; direction: higher = stronger binding
Target: Histone acetyltransferase KAT6A, winged helix 2, GST fusion (KAT6A, Homo sapiens, UniProt Q92794, residues 85-181)
Setting: 8-mer, flanks averaged, mean of 2 arrays, mostly near background
Target sequence (chain): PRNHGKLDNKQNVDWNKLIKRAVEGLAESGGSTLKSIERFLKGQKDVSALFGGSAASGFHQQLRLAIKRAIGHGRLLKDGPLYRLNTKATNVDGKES
`GGGCTCAA` has an E-score of -0.153.
With `GATCCGCC` the E-score was 0.182.
For `ACGATCAT`, the E-score was -0.14.
`AAGGATAG` has an E-score of -0.133.
`AGAGTTAG` has an E-score of 0.0112.
`AGCATGTA` has an E-score of -0.299.
The E-score of `ACAAACGC` is reported as -0.0297.

Study 2 — technique: competition protein-binding microarray; molecule type: double-stranded DNA, one strand shown; matrix: in vitro; concentration: 2 µM; added: Cbf1 competitor, 0.05 µM; direction: higher = stronger binding
Target: Phosphate system positive regulatory protein PHO4, full length, GST-tagged (PHO4, Saccharomyces cerevisiae, UniProt P07270, residues 1-312)
Setting: whole 60-bp probe, lowest competitor level
Residues (chain): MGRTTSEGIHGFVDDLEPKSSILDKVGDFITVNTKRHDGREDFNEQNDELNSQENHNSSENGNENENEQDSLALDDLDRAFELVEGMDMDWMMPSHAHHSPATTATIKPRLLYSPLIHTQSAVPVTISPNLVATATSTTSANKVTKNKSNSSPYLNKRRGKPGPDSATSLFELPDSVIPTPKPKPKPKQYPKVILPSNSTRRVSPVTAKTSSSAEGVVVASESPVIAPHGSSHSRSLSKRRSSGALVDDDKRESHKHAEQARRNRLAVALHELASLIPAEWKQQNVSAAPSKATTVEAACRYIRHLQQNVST
`TCTATAATAACGTCCCACGTGAAAATACCAACCTCTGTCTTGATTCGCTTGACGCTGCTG` has a fluorescence intensity of 14900 a.u.
`AGCTCCTGCACTTTGCACGTGGCCGAGCCATCGCCCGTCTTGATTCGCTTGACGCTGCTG` gave a fluorescence intensity of 18100 a.u.
The fluorescence intensity of `TTCCATTTGAACTGTCACATGACGAAACAGATGAACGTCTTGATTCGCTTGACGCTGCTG` is reported as 8140 a.u.
With `ACTCTGCAATTCTATCAGTAGGTGGTGCAACCGCGTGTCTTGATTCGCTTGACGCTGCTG` the fluorescence intensity was 8260 a.u.
`GGCCCATGAACCCATCACGTTTTTCTAATGCAGGGCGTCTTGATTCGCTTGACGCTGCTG` has a fluorescence intensity of 12400 a.u.
For `TGCGCAACAACTTGTCACATTACTTTATGTCTAGAAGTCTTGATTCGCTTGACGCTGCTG`, the fluorescence intensity was 4060 a.u.
`TCCCTTCAAACTCACCACGTGATGGTCTAGACGTTGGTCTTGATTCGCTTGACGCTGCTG` has a fluorescence intensity of 15200 a.u.
The fluorescence intensity of `TGCGCAACAACTTGTCACAGAACTTTATGTCTAGAAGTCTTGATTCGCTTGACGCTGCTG` is reported as 3150 a.u.

Study 3 — technique: protein-binding microarray; molecule type: double-stranded DNA, one strand shown; matrix: in vitro; concentration: 2540 nM top; setting: 60-bp whole probe; added: salmon DNA 0.4 mg/ml; reference: random background probes; direction: higher = stronger binding
Target: Interferon regulatory factor 3, full length, phosphomimetic (IRF3, Homo sapiens, UniProt Q14653, residues 1-427, S386D/S396D/S398D/S402D/T404D/S405D)
All sequences stand within: GCCTAGCAC … GTGCTAGGTCTTGATTCGCTTGACGCTGCTG
Construct (chain): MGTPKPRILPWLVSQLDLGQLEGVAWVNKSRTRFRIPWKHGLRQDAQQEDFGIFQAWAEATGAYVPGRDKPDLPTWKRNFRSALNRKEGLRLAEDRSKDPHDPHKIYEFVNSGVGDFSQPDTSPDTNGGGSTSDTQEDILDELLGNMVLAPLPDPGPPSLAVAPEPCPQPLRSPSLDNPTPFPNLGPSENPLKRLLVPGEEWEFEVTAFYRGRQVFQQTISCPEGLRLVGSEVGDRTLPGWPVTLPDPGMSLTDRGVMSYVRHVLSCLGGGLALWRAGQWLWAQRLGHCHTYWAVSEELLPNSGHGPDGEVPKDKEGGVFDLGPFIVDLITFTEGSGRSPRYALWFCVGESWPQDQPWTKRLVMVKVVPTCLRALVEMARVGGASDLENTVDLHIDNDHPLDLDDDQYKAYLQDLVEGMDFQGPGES
For `ATGTGTTTACAGATGTTTTT`, “fitted relative affinity” read 0.166 z-score.
For `TCAGGCTTCTATGTAGTACT`, “fitted relative affinity” read -0.76 z-score.
Under “fitted relative affinity”, `TTAGGTTTCGGACTTGGTTA` is recorded as 5.94 z-score.
`TTAGTTCTCGGACTGGGTTA` — result for “fitted relative affinity”: 0.295 z-score.
Under “fitted relative affinity”, `GACGATTTCAGTTTCGAGCC` is recorded as 3.58 z-score.
Under “fitted relative affinity”, `GGGGATAAACTTAATGGATG` is recorded as -0.562 z-score.
Under “fitted relative affinity”, `TTAGGACTGGGTCTCGTTTA` is recorded as -0.439 z-score.
Under “fitted relative affinity”, `GGACGAGCGACGGTGACACT` is recorded as -1 z-score.

Further values, each from its own experiment
For `PhoQ, residues 284 288 289 292 302 303 SNSSNI`, the fold induction was 1.21 (PhoP, residues 12 14 15 18 19 QWHVF (Escherichia coli, UniProt P23836); Sort-seq, measured: YFP reporter; E. coli; PhoQ-PhoP variant library, added: 10 µM Mg2+; reference: high Mg2+ state, higher = stronger signaling).

Repeated from above (study 1):
`GGGCTCAA` has an E-score of -0.153.
`AGAGTTAG` has an E-score of 0.0112.
With `GATCCGCC` the E-score was 0.182.
